Measured values of several laboratories.
Numbers after ± are the reported error.
Spike glycoprotein: Spike glycoprotein (Severe acute respiratory syndrome coronavirus 2, UniProt P0DTC2)
Spike glycoprotein RBD: Spike glycoprotein, RBD (Severe acute respiratory syndrome coronavirus 2, UniProt P0DTC2)
OPRM1: Mu-type opioid receptor (OPRM1, Homo sapiens, UniProt P35372)
UniProt P35372, sequence (whole entry, looked up): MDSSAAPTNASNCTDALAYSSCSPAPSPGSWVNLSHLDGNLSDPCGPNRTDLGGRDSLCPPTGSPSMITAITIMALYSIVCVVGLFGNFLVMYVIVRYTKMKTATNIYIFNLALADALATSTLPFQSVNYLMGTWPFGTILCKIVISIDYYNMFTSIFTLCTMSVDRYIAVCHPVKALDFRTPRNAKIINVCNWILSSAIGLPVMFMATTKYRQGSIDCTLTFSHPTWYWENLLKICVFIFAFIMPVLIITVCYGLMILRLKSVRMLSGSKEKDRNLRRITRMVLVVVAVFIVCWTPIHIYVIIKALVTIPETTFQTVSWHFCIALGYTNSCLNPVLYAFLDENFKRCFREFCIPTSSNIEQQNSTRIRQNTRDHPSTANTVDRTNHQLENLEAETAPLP
UniProt Q16762, sequence (whole entry, looked up): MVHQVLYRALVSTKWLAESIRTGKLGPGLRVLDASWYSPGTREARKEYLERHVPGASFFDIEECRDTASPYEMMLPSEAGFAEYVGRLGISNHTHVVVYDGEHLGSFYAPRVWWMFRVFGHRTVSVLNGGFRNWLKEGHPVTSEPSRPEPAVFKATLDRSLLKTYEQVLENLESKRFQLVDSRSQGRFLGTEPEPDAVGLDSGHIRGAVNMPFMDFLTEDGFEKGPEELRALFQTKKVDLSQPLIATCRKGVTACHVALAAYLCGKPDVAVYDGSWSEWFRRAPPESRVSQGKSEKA

`O=C1SCCC1NC(C(=O)NCc1ccccc1)C1CC1` (stereo not shown) has an EC50 of 17 ± 9.5 µM (Thiosulfate sulfurtransferase (TST, Homo sapiens, UniProt Q16762); enzyme activity, activator, cyanide to thiocyanate conversion).
For `O=C(C=Cc1ccc(O)c(O)c1)OC1CC(O)(C(=O)O)CC(OC(=O)C=Cc2ccc(O)c(O)c2)C1O` (stereo not shown), the Kd was 1.48 µM (Spike glycoprotein; binding, biolayer interferometry).
`CC[C@H](C)[C@H](N)C(=O)N[C@@H](CCC(=O)O)C(=O)N[C@@H](CCC(=O)O)C(=O)N[C@@H](CCC(N)=O)C(=O)N[C@@H](C)C(=O)N[C@@H](CCCCN)C(=O)N[C@H](C(=O)N[C@@H](Cc1ccccc1)C(=O)N[C@@H](CC(C)C)C(=O)N[C@@H](CC(=O)O)C(=O)N[C@@H](CCCCNC(=O)CCS)C(=O)N[C@@H](Cc1ccccc1)C(=O)N[C@@H](CC(N)=O)C(=O)N[C@@H](Cc1c[nH]cn1)C(=O)N[C@@H](CCC(N)=O)C(=O)N[C@@H](C)C(=O)N[C@@H](CCC(=O)O)C(=O)N[C@@H](CC(=O)O)C(=O)N[C@@H](CC(C)C)C(=O)N[C@@H](Cc1ccccc1)C(=O)N[C@@H](Cc1ccc(O)cc1)C(=O)N[C@H](CCCCN)C(=O)O)[C@@H](C)O` gave a Kd of over 1000 µM (Spike glycoprotein RBD; pH 7.4).
`CCCCCCCCCCCCCCCC(=O)N[C@@H](CCC(=O)NCCOCCOCCC(=O)NCCOCCOCCC(=O)NCCCC[C@H](NC(=O)[C@H](CC(=O)O)NC(=O)[C@H](CC(C)C)NC(=O)[C@H](Cc1ccc(O)cc1)NC(=O)[C@H](CCCCN)NC(=O)[C@H](CO)NC(=O)[C@H](Cc1ccc(O)cc1)NC(=O)[C@H](CC(=O)O)NC(=O)[C@H](CO)NC(=O)[C@@H](NC(=O)[C@H](Cc1ccccc1)NC(=O)[C@@H](NC(=O)CNC(=O)[C@H](CCC(N)=O)NC(=O)[C@@H](CO)NC(=O)[C@@H](N)Cc1c[nH]cn1)[C@@H](C)O)[C@@H](C)O)C(=O)N[C@@H](CCCNC(=N)N)C(=O)N[C@@H](CCCNC(=N)N)C(=O)N[C@@H](C)C(=O)N[C@@H](CCC(N)=O)C(=O)N[C@@H](CC(=O)O)C(=O)N[C@@H](Cc1ccccc1)C(=O)N[C@H](C(=O)N[C@@H](CCC(N)=O)C(=O)N[C@@H](Cc1c[nH]c2ccccc12)C(=O)N[C@@H](CC(C)C)C(=O)N[C@@H](CC(C)C)C(=O)N[C@@H](CC(N)=O)C(=O)N[C@H](C(=O)NCC(=O)NCC(=O)N1CCC[C@H]1C(=O)N[C@@H](CO)C(=O)N[C@@H](CO)C(=O)NCC(=O)N[C@@H](C)C(=O)N1CCC[C@H]1C(=O)N1CCC[C@H]1C(=O)N1CCC[C@H]1C(=O)N[C@@H](CO)C(N)=O)[C@@H](C)O)C(C)C)C(=O)O` gave a creatinine of 22.4 ± 1.5 µmol/L (Sprague-Dawley rat, male; subcutaneous, 500 µg/kg once daily, 14 days).
`CC(C)C[C@H](NC(=O)[C@H](Cc1ccccc1)NC(=O)[C@@H](NC(=O)[C@H](CCCCN)NC(=O)[C@H](C)NC(=O)[C@H](CCC(N)=O)NC(=O)[C@@H](N)CCC(=O)O)[C@@H](C)O)C(=O)N[C@@H](CC(=O)O)C(=O)N[C@@H](CCCCN)C(=O)N[C@@H](Cc1ccccc1)C(=O)O` has a Kd of 0.0478 µM (Spike glycoprotein; binding).
`CC[C@H](C)[C@H](NC(=O)[C@H](CC(C)C)NC(=O)[C@H](CC(=O)O)NC(=O)[C@H](CO)NC(=O)[C@@H](NC(=O)[C@H](CCCNC(=N)N)NC(=O)[C@H](CCSC)NC(=O)[C@H](CO)NC(=O)[C@H](C)NC(=O)[C@H](CCC(=O)O)NC(=O)[C@H](C)NC(=O)[C@H](Cc1c[nH]cn1)NC(=O)CNC(=O)[C@H](CC(C)C)NC(=O)[C@H](CCC(=O)O)NC(=O)[C@H](CC(=O)O)NC(=O)[C@H](CC(C)C)NC(=O)[C@H](CC(C)C)NC(=O)[C@H](CCCNC(=N)N)NC(=O)[C@H](CCSC)NC(=O)[C@@H](NC(=O)[C@H](CCC(=O)O)NC(=O)[C@H](Cc1ccc(O)cc1)NC(=O)[C@@H](NC(=O)[C@H](CCCCN)NC(=O)[C@H](CCC(N)=O)NC(=O)[C@H](CC(C)C)NC(=O)[C@@H](NC(=O)[C@H](Cc1c[nH]c2ccccc12)NC(=O)[C@H](CCC(=O)O)NC(=O)[C@H](CCCCN)NC(=O)[C@@H](N)CC(=O)O)[C@@H](C)CC)[C@@H](C)CC)[C@@H](C)CC)C(C)C)C(=O)N[C@@H](Cc1ccc(O)cc1)C(=O)N[C@@H](CCC(=O)O)C(=O)N[C@@H](Cc1ccccc1)C(=O)N[C@@H](CCSC)C(=O)N[C@@H](CCCCN)C(=O)N[C@@H](CCCCN)C(N)=O` has a Kd of 0.0047 µM (Spike glycoprotein; binding, SPR).
For `O=C1CC(c2ccc(O)cc2)Oc2cc(OC3OC(CO)C(O)C(O)C3O)c(OC3OC(CO)C(O)C(O)C3O)c(O)c21` (stereo not shown), the Kd was 2.15 µM (Spike glycoprotein; binding).
For `CC[C@H](C)[C@H](NC(=O)[C@H](CCCCN)NC(=O)[C@H](CCC(N)=O)NC(=O)[C@H](CC(C)C)NC(=O)[C@H](CO)NC(=O)[C@H](Cc1c[nH]c2ccccc12)NC(=O)[C@H](CCC(=O)O)NC(=O)[C@H](CCCCN)NC(=O)[C@H](CC(=O)O)NC(C)=O)C(=O)N[C@@H](Cc1ccc(O)cc1)C(=O)N[C@@H](CCC(=O)O)C(=O)N[C@@H](CCCC(=O)NCCN(CC(=O)NCCN(CC(=O)NCCN(CC(=O)NCCN(CC(=O)N[C@@H](CCCNC(=N)N)C(N)=O)C(=O)Cn1cnc2c(=O)[nH]c(N)nc21)C(=O)Cn1ccc(N)nc1=O)C(=O)Cn1ccc(N)nc1=O)C(=O)Cn1cnc2c(=O)[nH]c(N)nc21)C(=O)N[C@@H](CSSC)C(=O)N[C@@H](CCCNC(=N)N)C(=O)N[C@@H](CC(C)C)C(=O)N[C@@H](CC(C)C)C(=O)N[C@@H](CC(=O)O)C(=O)N[C@@H](CCC(=O)O)C(=O)N[C@@H](CC(C)C)C(=O)NCC(=O)N[C@@H](Cc1c[nH]cn1)C(=O)N[C@@H](C)C(=O)N[C@@H](CCC(=O)O)C(=O)N[C@@H](C)C(=O)N[C@@H](CO)C(=O)N[C@@H](CCSC)C(=O)N[C@@H](CCCNC(=N)N)C(=O)N[C@H](C(=O)N[C@@H](CO)C(=O)N[C@@H](CC(=O)O)C(=O)N[C@@H](CCCCNC(=O)CN(CCNC(=O)CN(CCNC(=O)CN(CCNC(=O)CN(CCNC(=O)[C@H](CCCNC(=N)N)NC(C)=O)C(=O)Cn1ccc(N)nc1=O)C(=O)Cn1cnc2c(=O)[nH]c(N)nc21)C(=O)Cn1cnc2c(=O)[nH]c(N)nc21)C(=O)Cn1ccc(N)nc1=O)C(=O)N[C@H](C(=O)N[C@@H](Cc1ccc(O)cc1)C(=O)N[C@@H](CCC(=O)O)C(=O)N[C@@H](Cc1ccccc1)C(=O)N[C@@H](CCSC)C(=O)N[C@@H](CCCCN)C(=O)N[C@@H](CCCCN)C(N)=O)[C@@H](C)CC)C(C)C`, the Kd was 0.00032 µM (Spike glycoprotein; binding, SPR).
The Kd of `O=c1cc(-c2cc(O)c(O)c(S(=O)(=O)O)c2)oc2cc(O)c(S(=O)(=O)O)c(O)c12` is reported as 8.37 µM (Spike glycoprotein; binding).
With `CC(C)C[C@H](NC(=O)[C@H](CO)NC(=O)[C@H](CCCCN)NC(=O)[C@H](CC(C)C)NC(=O)CNC(=O)[C@H](CCCCN)NC(=O)[C@H](CCC(=O)O)NC(=O)CNC(=O)[C@H](CC(C)C)NC(=O)[C@H](CC(N)=O)NC(=O)[C@@H]1CCCN1C(=O)[C@H](CC(C)C)NC(=O)[C@H](Cc1ccccc1)NC(=O)CNC(=O)[C@H](NC(=O)[C@@H](N)Cc1ccc(O)cc1)[C@H](C)O)C(N)=O` the Ki was 0.012 ± 0.0018 µM (OPRM1; radioligand displacement; CHO membranes; 60 min, pH 7.5, 25 °C, with: 0.25 nM [3H]DAMGO).
For `CC(C)=CCCC(C)(OC1OC(COC2OC(CO)C(O)C2OC2OCC(O)C(O)C2O)C(O)C(O)C1O)C1CCC2(C)C1C(O)CC1C3(C)CCC(OC4OC(CO)C(O)C(O)C4OC4OC(CO)C(O)C(O)C4O)C(C)(C)C3CCC12C` (stereo not shown), the Kd was 9.44 µM (Spike glycoprotein, S1 subunit (Severe acute respiratory syndrome coronavirus 2, UniProt P0DTC2); binding).
`CC(C)C[C@H](NC(=O)[C@H](CO[C@@H]1O[C@H](CO)[C@@H](O[C@@H]2O[C@H](CO)[C@H](O)[C@H](O)[C@H]2O)[C@H](O)[C@H]1O)NC(=O)[C@H](CCCCN)NC(=O)[C@H](CC(C)C)NC(=O)CNC(=O)[C@H](CCCCN)NC(=O)[C@H](CCC(=O)O)NC(=O)[C@H](C)NC(=O)[C@H](CC(C)C)NC(=O)[C@H](CC(N)=O)NC(=O)[C@@H]1CCCN1C(=O)[C@H](CC(C)C)NC(=O)[C@H](Cc1ccccc1)NC(=O)CNC(=O)[C@H](NC(=O)[C@@H](N)Cc1ccc(O)cc1)[C@H](C)O)C(N)=O` gave a Ki of 0.0096 ± 0.00018 µM (OPRM1; radioligand displacement; CHO membranes; 60 min, pH 7.5, 25 °C, with: 0.25 nM [3H]DAMGO).
The Kd of `CC(C)C[C@H](NC(=O)[C@H](Cc1c[nH]c2ccccc12)NC(=O)[C@H](CCCNC(=N)N)NC(=O)[C@H]1CCC[C@@H]1NC(=O)[C@H](CCC(=O)O)NC(=O)[C@H](CC(=O)O)NC(=O)[C@H](CC(=O)O)NC(=O)[C@@H](N)CCCNC(=N)N)C(=O)N[C@H]1CCC[C@@H]1C(=O)N[C@H](C(=O)N[C@@H](CC(=O)O)C(=O)N[C@H]1CCC[C@@H]1C(=O)N[C@H](C(=O)N[C@@H](Cc1ccc(O)cc1)C(=O)N[C@@H](CCCC(=O)O)C(=O)N[C@H]1CCC[C@@H]1C(=O)N[C@@H](Cc1c[nH]c2ccccc12)C(=O)N[C@@H](Cc1c[nH]cn1)C(N)=O)C(C)C)[C@@H](C)O` is reported as 6.5 µM (Spike glycoprotein RBD).

A few entries again:
For `CC(C)=CCCC(C)(OC1OC(COC2OC(CO)C(O)C2OC2OCC(O)C(O)C2O)C(O)C(O)C1O)C1CCC2(C)C1C(O)CC1C3(C)CCC(OC4OC(CO)C(O)C(O)C4OC4OC(CO)C(O)C(O)C4O)C(C)(C)C3CCC12C` (stereo not shown), the Kd was 9.44 µM (Spike glycoprotein, S1 subunit (Severe acute respiratory syndrome coronavirus 2, UniProt P0DTC2); binding).
